{"data": "Experimental data collected from several papers", "note": "A part holds a random share of what one study measured. Changes are numbered by the printed parent chain."}
{"data": "Study 1", "target": "CCND1, cyclin fold, Cln2 fusion (human)", "method": "yeast growth competition, sequencing", "sample": "yeast", "setting": "strong parent motif", "relative to": "not given", "direction": "higher = stronger binding", "parent": "INSM1 docking peptide (human); PKAIRKLHFEDEV"}
{"Substitution": "PKASRKLHFEDEV [I4S]", "normalised enrichment score": 3.42}
{"Substitution": "PKLIRKLHFEDEV [A3L]", "normalised enrichment score": 0.338}
{"Substitution": "PKAIRKLIFEDEV [H8I]", "normalised enrichment score": 5.71}
{"Substitution": "PKAIRKLVFEDEV [H8V]", "normalised enrichment score": 5.97}
{"Substitution": "PKAIRKLAFEDEV [H8A]", "normalised enrichment score": 4.88}
{"Substitution": "PKAIRKLHFLDEV [E10L]", "normalised enrichment score": 2.14}
{"Substitution": "PKAGRKLHFEDEV [I4G]", "normalised enrichment score": 1.45}
{"Substitution": "PVAIRKLHFEDEV [K2V]", "normalised enrichment score": 3.48}
{"Substitution": "PKCIRKLHFEDEV [A3C]", "normalised enrichment score": 4.47}
{"Substitution": "PKAIRKLHFHDEV [E10H]", "normalised enrichment score": 3.08}
{"Substitution": "PKAIRKAHFEDEV [L7A]", "normalised enrichment score": -0.0523}
{"Substitution": "PKAIRKLHFEDRV [E12R]", "normalised enrichment score": 2.38}
{"Substitution": "PMAIRKLHFEDEV [K2M]", "normalised enrichment score": 3.37}
{"Substitution": "PKAIRKLSFEDEV [H8S]", "normalised enrichment score": 5.61}
{"Substitution": "PPAIRKLHFEDEV [K2P]", "normalised enrichment score": 3.22}
{"Substitution": "PKAIRPLHFEDEV [K6P]", "normalised enrichment score": 0.477}
{"Substitution": "PKAIRKLHKEDEV [F9K]", "normalised enrichment score": -0.44}
{"Substitution": "PKAIRQLHFEDEV [K6Q]", "normalised enrichment score": 4.23}
{"Substitution": "PKAIRKLHEEDEV [F9E]", "normalised enrichment score": 0.0383}
{"Substitution": "PKAIRKLHFENEV [D11N]", "normalised enrichment score": 3.51}
{"Substitution": "PKAIPKLHFEDEV [R5P]", "normalised enrichment score": 0.333}
{"Substitution": "PKAIRKLHYEDEV [F9Y]", "normalised enrichment score": 1.5}
{"Substitution": "PKAIRKQHFEDEV [L7Q]", "normalised enrichment score": -0.0797}
{"Substitution": "PKAIRKLRFEDEV [H8R]", "normalised enrichment score": 3.69}
{"Substitution": "PKAIRELHFEDEV [K6E]", "normalised enrichment score": 3.32}
{"data": "Study 2", "target": "RNA binding protein fox-1 homolog 2, RRM domain, GST-SBP tag (RBFOX2, Homo sapiens, UniProt O43251-10, residues 100-194)", "method": "RNA Bind-n-Seq", "molecule type": "RNA", "sample": "in vitro", "tested at": "365 nM", "setting": "natural RNA segment, single round, ends assumed", "relative to": "no-protein control", "direction": "higher = stronger binding", "shared flanks, not repeated": "GGGAGUUCUACAGUCCGACGAUC … UGGAAUUCUCGGGUGCCAA", "Construct (chain)": "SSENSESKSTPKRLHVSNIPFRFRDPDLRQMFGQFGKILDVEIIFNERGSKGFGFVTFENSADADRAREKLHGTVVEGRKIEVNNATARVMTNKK"}
{"Strand": "AGCUUGAGUUCUGUGCUCAGCCUCUGCAGGGGAUGUCAAACUCAGUAUGGGGUUUGUGCUAUGUGGAUGGAUAUGUAAGGAACUCCAGUUCCAGCUACAACUAAAUACAA", "RBNS enrichment (R)": 0.743}
{"Strand": "UGUAUCAAUAUUUCCUAACAUGAAGCAGUCAAACAUGUAUGGCACAUACUGACCAGACGUCAGUCUGUGAUGUUUCCGCUGCAAGAAUUCAAGCAUGCUGUUAGGAAUGU", "RBNS enrichment (R)": 6.93}
{"Strand": "AAGCAUAUCUAUUAAUAAUUCCCCCAAUUUUUUAAACUAACAAAAUGGAAUGUUAACUGAAUGGAAUUAAACAUAGCAAUUGUCAAGCCAUCAAAAUUAUAUAUCGAACC", "RBNS enrichment (R)": 0.593}
{"Strand": "UGGUAUAUGUCAAUGACGUGGAGUGAAAUUUGCUAUUAGAUCCUGGAGGCAAAUGGGUUGUACAAGGUUUUAUGGCUCCGCGGGGAAUUUAAUUUCCUUUCUGGGCACCU", "RBNS enrichment (R)": 0.655}
{"Strand": "AGAGGGACAACUGCAGCAGUGGGGAGGAGGCACAGCUAGCUGCACAGUUCUCUCUUCUCCUUGUCCUAGUCAGAUGAAGGAGGCUGCACUACAAACCCAAAUUCUGCAAA", "RBNS enrichment (R)": 0.758}
{"Strand": "UAACUUUUUUAUAUUUGGGUUAUGAUGUCAAACGAUCCUAAGCGAAGAUGAUUUCAGUUCAUCAAAUCAUCAUUAAUGACUUUAUGUAUUAUUUGCACAGGGAGAAUUGA", "RBNS enrichment (R)": 0.377}
{"Strand": "CAAUACCCUUGUUAAUUGCCCGUUGGCAACUAACUUAAUCAUGUGCUUCCAACACACUAAAUAGGGAAAACUUACAGGGCAAUAUUUUUAACUUGUGGCAAGAGGGAGGC", "RBNS enrichment (R)": 0.288}
{"Strand": "CUGCAGGUGGUGCAUCAUCGUAUACACUAAGUGACAUUUCUAUCACAAUCAUUUUAUGGAAGAUGUGUGAUAAUCUGUUUUUACUGGUAUUAAUAAACACAUACAAUGAA", "RBNS enrichment (R)": 0.621}
{"Strand": "CGUUUUCUUGAUAAUUGUAAGCUUGAGAGUGUUUGUGGAAGAACUUACUUUCUUCUUAUGUAUACAUAAUUAAAUGAAAAGUCUUCAUAGGAGUUUGACAAAAUGAAUUG", "RBNS enrichment (R)": 0.922}
{"Strand": "UAUGGGCCAAACAAAGGCCAUGGAUAACCCUACCCGCUUUAUGUCAUUACCCAUUGGGAAACACAAUGGCUACUUCUGUUAGGGUACAUUGACCUUGGUCAAGCAUCUUA", "RBNS enrichment (R)": 0.268}
{"Strand": "UCAUAUAUACGUUCAUCUUUCAAGUCAGAGCAAUGAGUUGGGAAAAGAGGUGGCAUUUCUGAUCGGAUAAUGGAAUACUCUCAUUUAUUUUAUGACAUUCUCUGUCUACU", "RBNS enrichment (R)": 0.237}
{"Strand": "ACAAGACUUCUUGGCUUUUCCAAAGACAGAGAUUUCUGGGGGGAAGCCGAAUAUUUCUACCUAAACUCUGGGUGUGACCUCAGCUCGCUUUCCUCUGAUCCACUGUCCAA", "RBNS enrichment (R)": 0.315}
{"data": "Study 3", "target": "Histone acetyltransferase KAT6A, winged helix 1, GST fusion (KAT6A, Homo sapiens, UniProt Q92794, residues 1-85)", "method": "protein binding microarray", "molecule type": "double-stranded DNA, one strand shown", "sample": "in vitro", "tested at": "not given", "setting": "8-mer, flanks averaged, mean of 2 arrays, mostly near background", "relative to": "not given", "direction": "higher = stronger binding", "Residues (chain)": "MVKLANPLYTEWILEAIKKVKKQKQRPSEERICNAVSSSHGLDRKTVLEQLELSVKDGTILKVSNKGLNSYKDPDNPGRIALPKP"}
{"Strand": "CCCATGCG", "E-score": 0.104}
{"Strand": "CGAAAGTC", "E-score": -0.0202}
{"Strand": "CTAAGTTC", "E-score": -0.16}
{"Strand": "AATAATCA", "E-score": 0.0383}
{"Strand": "ACCCACCA", "E-score": -0.223}
{"Strand": "GTCCTCAC", "E-score": -0.0315}
{"Strand": "AAGGAGCC", "E-score": 0.0272}
{"Strand": "CCAAGGTA", "E-score": -0.132}
{"Strand": "ATGTCTGA", "E-score": -0.155}
{"Strand": "AATAGTAG", "E-score": -0.11}
{"Strand": "TCTGTAAA", "E-score": 0.0921}
{"Strand": "AATGTCAC", "E-score": -0.21}
{"Strand": "CACTAAAA", "E-score": -0.158}
{"Strand": "AATCATCT", "E-score": -0.202}
{"Strand": "CAGTCCAG", "E-score": -0.162}
{"Strand": "AGTAGAAG", "E-score": -0.219}
{"Strand": "ATCGAACG", "E-score": 0.0325}
{"Strand": "AAGAATGC", "E-score": -0.195}
{"Strand": "GATATTGC", "E-score": 0.0176}
{"Strand": "AGGCTAGA", "E-score": -0.188}
{"Strand": "ACCGGCAG", "E-score": 0.293}
{"Strand": "GTCTCTGA", "E-score": -0.0923}
{"Strand": "CTATTATC", "E-score": -0.149}
{"Strand": "ACTGCCAC", "E-score": -0.141}
{"Strand": "TGGTATAA", "E-score": -0.171}
{"data": "Study 4", "target": "RING finger protein unkempt homolog, zinc fingers 1-6, GST-SBP tag (UNK, Homo sapiens, UniProt Q9C0B0, residues 30-357)", "method": "RNA Bind-n-Seq", "molecule type": "RNA", "sample": "in vitro", "tested at": "not given", "setting": "RNA with constant flanks, ends assumed", "relative to": "input RNA pool", "direction": "higher = stronger binding", "shared flanks, not repeated": "GGGAGUUCUACAGUCCGACGAUC … CAACAGAGGAUUGAGCAUCA", "UniProt Q9C0B0, sequence (30-357, looked up)": "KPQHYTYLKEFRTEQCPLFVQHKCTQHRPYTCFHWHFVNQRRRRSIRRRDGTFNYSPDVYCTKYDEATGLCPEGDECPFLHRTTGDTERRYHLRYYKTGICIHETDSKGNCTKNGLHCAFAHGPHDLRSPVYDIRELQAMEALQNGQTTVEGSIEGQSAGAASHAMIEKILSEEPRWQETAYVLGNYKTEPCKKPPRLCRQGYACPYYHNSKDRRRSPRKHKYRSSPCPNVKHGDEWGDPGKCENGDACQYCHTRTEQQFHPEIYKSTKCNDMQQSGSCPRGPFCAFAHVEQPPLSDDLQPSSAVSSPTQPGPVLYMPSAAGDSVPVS"}
{"Strand": "AAACAUGAAUGUCAAGCAAAUGGACCAGAAGAUCUCAAUCGGGCUUGUAUUGCUGAAAAGUCCGGUGGAUCCUUAAUUGUAGCCUUUGAAGGAUGCCCUGUGUAGAUUAUUCAGUGCCAC", "bound/input enrichment [ratio]": 0.216}
{"Strand": "UUUCCCGGAAACAGUACCCAGUACAACAUCCUAGAAGGACUGGAGAAACUCAAACAUCCCGAUUUCCUAAAGCAGCCACUGGCCACCCAAAAAGAUCUCACUGGCCAGGUGCCCACCCCC", "bound/input enrichment [ratio]": 0.237}
{"Strand": "GAGUUUCUUGCUUUGACAUUCAGUGAAAAUGAGAAAAACGCUGCGUACUAUGCGUCCGCAACCGUGCAUGGAGCGGCCGCUUAUCUCCCAGACUUCUUGGACUACUUUGCUUUUAAUUUU", "bound/input enrichment [ratio]": 0.101}
{"Strand": "CUGGCAAUCCAGUGCCGUGCUGACCAGUCUUUCACUUCUCCACCCCCGAGAGAUUUCUUAUCCGAUAUUGCACGACAAAGAAAUCAAACCCCUUUGCCACUGAUCAAGCCAUAUUCAGGU", "bound/input enrichment [ratio]": 0.161}
{"Strand": "AGAAUGUCCCACUUGCUGUCUCUUAGAGGCUGAGCUUCAUUUCUAUGAGCAAAGAGCUCAUUCCGCAAUGUAGUUAUUUCAGUAUUUAUUUCUAUUAUGGAAUCCCUGGGGUUCAGAAUG", "bound/input enrichment [ratio]": 0.745}
{"Strand": "UAUUUAUAUUUAUUGACUCUUGAGUUGUUUUUGUAUAUUGGUUUUAUGAUGACGUACAAGCCGUUCUGUAUUUGAAAGUGCCUUUGCAGCUCAGAACCACAGCAACGAUCACAAAUGACU", "bound/input enrichment [ratio]": 0.34}
{"Strand": "UUUAACCAUGUGUCUACAAGAAUAAGUUUGUUUUGGAAAGUUGAGCUAUAGCUACAGCUCCCGCUAUCCAGCAGACUUUUCAUUAUGACUUACAUGGCAGGAGCUCUAAUUAUGCUUUAA", "bound/input enrichment [ratio]": 0.167}
{"Strand": "UUGUUUAUGGGAGAUUAUGUUGACAGAGGAUAUUAUUCAGUUGAAACAGUUACACUGCUUGCCGCUCUUAAGGUUCGUUACCGUGAACGCAUCACCAUUCUUCGAGGGAAUCAUGAGAGC", "bound/input enrichment [ratio]": 0.257}
{"Strand": "AUAGAACCAAGUAGCAAUAAAGAUGAUGAUUUUCUUGAAAAAAAUGGAGCUGAUGAAAAAUCCGAGCAAAUUCAGAGUAAAGACUCAUUGGAUGAGAAAAAUAAAGCUGAUAAUAAUAUU", "bound/input enrichment [ratio]": 6.35}
{"Strand": "UCAUUGUCCUUUCUCCAGUUUUUGUUCCAGAAUAAAAGGAAAUAUUUUAAAAGCCACGUUACCGGACCUAAAAAUCUGAUUUCCGUACCAGUUAAAUUGGUAGCAUCACUGUUACUGAUA", "bound/input enrichment [ratio]": 0.185}
{"Strand": "AGUGAAAAUAUUUCUGCAGCUAUUCAAGCUAAUGGUGAGAUGGUUACAAAGCAACCAUUGAUCCGAAGUAUGCGGACAGUAAAAAGGGAAACUUUAAAGUUAAUAUCUGGUUGGGUGAGC", "bound/input enrichment [ratio]": 0.298}
